Measured values of several laboratories.
Parts stem from different laboratories: compare values within a part only. Values joined by “and” are separate records of one study, mostly repeats; a detail may differ.
Sequence of UniProt P28223 (whole entry, looked up): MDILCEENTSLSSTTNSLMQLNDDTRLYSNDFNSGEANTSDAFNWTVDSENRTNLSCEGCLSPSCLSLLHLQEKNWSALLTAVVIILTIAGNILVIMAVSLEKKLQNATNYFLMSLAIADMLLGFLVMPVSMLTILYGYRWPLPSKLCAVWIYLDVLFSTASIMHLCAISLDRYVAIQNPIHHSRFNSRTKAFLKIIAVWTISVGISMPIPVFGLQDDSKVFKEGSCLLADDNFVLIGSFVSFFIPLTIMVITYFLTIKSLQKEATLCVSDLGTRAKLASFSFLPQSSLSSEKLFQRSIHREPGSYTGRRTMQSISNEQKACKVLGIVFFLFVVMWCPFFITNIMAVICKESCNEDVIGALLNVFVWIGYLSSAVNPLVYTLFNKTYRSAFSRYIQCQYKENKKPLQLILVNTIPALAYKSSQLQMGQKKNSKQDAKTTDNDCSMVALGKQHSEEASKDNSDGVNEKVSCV
Sequence of UniProt P61075 (whole entry, looked up): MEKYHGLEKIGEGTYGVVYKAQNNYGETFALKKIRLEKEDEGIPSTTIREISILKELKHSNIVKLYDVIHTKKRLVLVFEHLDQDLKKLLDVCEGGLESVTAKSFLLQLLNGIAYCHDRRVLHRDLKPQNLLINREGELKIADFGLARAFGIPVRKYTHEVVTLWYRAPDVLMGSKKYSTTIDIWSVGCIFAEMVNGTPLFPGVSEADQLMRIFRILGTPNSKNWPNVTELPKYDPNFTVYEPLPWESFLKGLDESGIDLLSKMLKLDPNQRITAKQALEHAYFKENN

Block 1 — cell line: Huh-7; tested at: 10 µM; time: 24 h; endpoint: viability
COP(=S)(OC)Oc1ccc(Sc2ccc(OP(=S)(OC)OC)cc2)cc1: 104%
COc1ccc2c(c1)[C@]13CCCC[C@@H]1[C@H](C2)N(C)CC3: 101%
CNC(C)C(O)c1ccccc1 (stereo not shown): 101%
C=CC[C@]1(O)CC[C@H]2[C@@H]3CCC4=CC(=O)CCC4=C3C=C[C@@]21C: 88.3%
Nc1ccncc1: 97.6%

Block 2 — organism: Cryptosporidium parvum; technique: qPCR; host: IFN-γ knockout mouse; endpoint: faecal oocyst shedding
SMILES: CNC(=O)c1ccc(-c2cnn3ccc(C(=O)N(C)c4ccc(Cl)c(C(=O)OC)c4)cc23)cc1
faeces; 10 mg/kg, day 5 post treatment: 4.31 log oocysts/g faeces and 3.62 log oocysts/g faeces and 4.36 log oocysts/g faeces
10 mg/kg, day 3 post treatment: 4.78 log oocysts/g faeces
faeces; 3 mg/kg, day 1 post treatment: 6.35 log oocysts/g faeces and 6.44 log oocysts/g faeces
faeces; 1 mg/kg, day 1 post treatment: 6.68 log oocysts/g faeces and 6.29 log oocysts/g faeces and 6.42 log oocysts/g faeces
faeces; 1 mg/kg, day 5 post treatment: 6.99 log oocysts/g faeces and 7.04 log oocysts/g faeces and 6.65 log oocysts/g faeces

Mixed results
O=C(NCCCC1CCCCC1)c1ccc(CNC(=O)c2cnn(-c3ccccc3)c2C(F)(F)F)cc1 — remaining binding (CRK2 (Plasmodium falciparum, UniProt P61075); cell-free assay, competition with immobilised ligand; 0.1 µM): 100%
O=C1CCC(N2Cc3c(ccc4c3OCC43CCN(Cc4ccccc4)CC3)C2=O)C(=O)N1 (stereo not shown) — CL (ICR mouse, male, plasma; intravenous, 1.0 mg/kg): 2.42 L/h/kg
Cc1nc(Cc2cccc(C(F)(F)F)c2)sc1-c1ccc(C(N)=O)nc1 — inhibition (HTR2A (Homo sapiens, UniProt P28223); binding, radioligand binding; 10 µM): 20.4%

Some of these lines once more (mixed results):
Cc1nc(Cc2cccc(C(F)(F)F)c2)sc1-c1ccc(C(N)=O)nc1 — inhibition (HTR2A (Homo sapiens, UniProt P28223); binding, radioligand binding; 10 µM): 20.4%
